Published values pooled from the literature.
Parts stem from different laboratories: compare values within a part only.

Block 1
Target: Hepatocyte nuclear factor 3-beta, forkhead domain (FOXA2, Homo sapiens, UniProt Q9Y261, residues 142-269)
Technique: protein-binding microarray
Form: double-stranded DNA, one strand shown
Sample: in vitro
Concentration: not given
Setting: k-mer, scored over probes, only values ≥0.25
Reading: higher = stronger binding
Target sequence (chain): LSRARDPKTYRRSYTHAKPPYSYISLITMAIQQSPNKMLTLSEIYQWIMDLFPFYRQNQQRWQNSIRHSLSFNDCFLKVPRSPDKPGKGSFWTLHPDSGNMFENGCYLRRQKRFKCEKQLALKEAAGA
Sequence | E-score
AACTAACA | 0.288
GTATTCAC | 0.251
ATTTATTC | 0.261
CTACACCA | 0.315
ATATGACA | 0.301
AATACTGT | 0.26
AACAATTC | 0.251
ATACTTAA | 0.298
AACAGTAC | 0.27
ATAAACAA | 0.378
AATGTTTA | 0.282
GGATATAC | 0.288
GTTGATAA | 0.365
TTGACAAA | 0.27
TTACTCAA | 0.263
ATATGAAA | 0.269
TACCTACA | 0.275
CCTATTAC | 0.258
TAAGCTAA | 0.257

Block 2
Target: Interferon regulatory factor 5, full length, phosphomimetic (IRF5, Homo sapiens, UniProt Q13568-2, residues 1-514, S451D/S453D/S456D/S462D)
Technique: protein-binding microarray
Form: double-stranded DNA, one strand shown
Sample: in vitro
Concentration: 940 nM top
Setting: 60-bp whole probe
Together with: salmon DNA 0.4 mg/ml
Reference: random background probes
Reading: higher = stronger binding
Constant ends, left off below: GCCTAGCAC … GTCTTGATTCGCTTGACGCTGCTG
Sequence | fitted relative affinity
TTAGATATCGGGTTTCGAGTAGTGCTA | 2.43 z-score
GACGAACTGGGGTATAGAGACGTGCTA | -0.244 z-score
TTAGGTACCGGGACTGGGTTAGTGCTA | -0.015 z-score
CTTTTATGCTCTTTCTACATGTGCTAG | 1.18 z-score
TCATGTTTCTCAACCATACTGTGCTAG | 1.03 z-score
TACGGTTTCCTTATCCTGACGTGCTAG | 1.43 z-score
ACTTGTATTTGTCCCTATTTGTGCTAG | 1.46 z-score
TTAGGACTGGGTCTAGGTTAGTGCTAG | -0.669 z-score
TTCCTTATTGCTTCCTCTTTGTGCTAG | 1.92 z-score
TTAGGTATCGGTATCGGTCAGTGCTAG | 10.6 z-score
TCATTTCCATCTCTCAAACTGTGCTAG | 1.69 z-score
CCAGCAGGGTTAGGCTTGCTGTGCTAG | -0.684 z-score
TCAGGTTTCGGGTTTCGGTTAGTGCTA | 10.1 z-score
GACGGTATCCTACTGCTGATGTGCTAG | -0.0385 z-score
TTAGGACAGCTACTGCTTTAGTGCTAG | -0.497 z-score
AGAAATTTCTTTCTAATTCAGTGCTAG | 0.514 z-score
TAATTTTTTAGCTTCTCAATGTGCTAG | 0.471 z-score
GATGGTATTTGCCTGTGGTCGTGCTAG | 0.117 z-score
GACGGGATCCTTCTCCTGACGTGCTAG | -0.27 z-score
AGTGTTTGCCCTATTTAAAAGTGCTAG | 0.875 z-score
TCATATTTAAGGCATCTGACTGTGCTA | 0.0415 z-score
TTACGTTTCGGGACTGGGTTAGTGCTA | 4.31 z-score
TCAGGTTTCCTTTTCCTTTAGTGCTAG | 1.66 z-score
TTAGGTCTCCTTCTCATTTAGTGCTAG | 0.705 z-score
TCATCTCCCAGACTGGAGTGGTGCTAG | -0.634 z-score

Block 3
Target: PABPC1L2, full length, GST fusion (mouse, UniProt A0ABA7IW68)
Technique: RNAcompete
Form: RNA
Sample: in vitro
Concentration: 20 nM
Setting: 7-mer, probes averaged, single round
Reference: mean of 7-mers
Reading: higher = stronger binding
Target sequence (chain): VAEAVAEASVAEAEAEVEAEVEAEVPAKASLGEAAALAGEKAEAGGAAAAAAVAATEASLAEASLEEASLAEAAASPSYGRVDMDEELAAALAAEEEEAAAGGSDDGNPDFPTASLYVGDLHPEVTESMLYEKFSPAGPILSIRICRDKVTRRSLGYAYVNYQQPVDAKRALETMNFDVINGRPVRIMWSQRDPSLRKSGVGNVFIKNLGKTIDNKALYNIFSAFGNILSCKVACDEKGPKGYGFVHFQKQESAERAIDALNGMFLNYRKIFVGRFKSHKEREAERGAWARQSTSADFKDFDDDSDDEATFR
Sequence | 7-mer Z-score
GACUAGC | -0.144
GGGUGAC | 0.0768
UUUUCGU | -0.4
UCGCAUU | -0.476
GAUGACG | -0.0428
CACUCUG | -0.329
UCGUCAC | -0.421
GGCUCAG | 0.204
UGUGAUU | -0.284
AUGUGCU | -0.0971
GUGAUUU | -0.224
GAAUCGU | -0.197
GGUCUAA | 0.0261
GGUCUCU | -0.336
GCUACGA | -0.11
UGUACAC | -0.278
GAAUUUG | -0.315

Block 4
Target: Ras GTPase-activating protein-binding protein 1, RRM domain (G3BP1, Homo sapiens, UniProt Q13283)
UniProt Q13283, sequence (whole entry, looked up): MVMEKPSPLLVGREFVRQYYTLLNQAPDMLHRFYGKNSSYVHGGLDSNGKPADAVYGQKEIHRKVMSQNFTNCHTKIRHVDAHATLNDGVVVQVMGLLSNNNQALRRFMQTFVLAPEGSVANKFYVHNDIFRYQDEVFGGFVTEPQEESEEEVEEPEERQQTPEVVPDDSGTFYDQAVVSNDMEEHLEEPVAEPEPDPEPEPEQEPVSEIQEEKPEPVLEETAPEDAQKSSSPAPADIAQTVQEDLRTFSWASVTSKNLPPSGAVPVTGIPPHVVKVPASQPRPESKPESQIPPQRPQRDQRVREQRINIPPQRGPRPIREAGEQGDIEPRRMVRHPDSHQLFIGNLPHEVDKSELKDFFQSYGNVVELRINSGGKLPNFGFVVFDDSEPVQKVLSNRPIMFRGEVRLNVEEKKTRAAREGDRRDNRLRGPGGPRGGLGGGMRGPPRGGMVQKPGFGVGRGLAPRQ
Technique: RNA Bind-n-Seq
Form: RNA
Sample: in vitro
Concentration: 1 µM
Setting: whole 134-nt RNA, ends assumed
Together with: 150 mM KCl
Reference: input library
Reading: higher = stronger binding
Sequence | log2 enrichment
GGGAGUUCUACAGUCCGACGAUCAAGUCCUGUGCUACACAUCGUAUGUACCGAAUCGGGUUUUGGGUUUUGGGUUUUGGGAAAGUAUUAUGUUACGCCGUUCGGAUCUGCACUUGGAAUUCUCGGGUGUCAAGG | 0.473
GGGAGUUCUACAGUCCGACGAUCUCAAGUCCUGUGCUACACAUCGUAUGUACCGAAUCGGGCCGGGGCCGGGGCCGGAAAGUAUUAUGUUACGCCGUUCGGAUCUGCACUUCCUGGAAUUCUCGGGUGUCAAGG | -1.76
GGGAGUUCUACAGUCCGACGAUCUGGCCCUGGUGGCAUGCGGGGAGGAAGAGGUGGCCUCAUGGAUCGUGGUGGUCGCGGUGGAAUGUUCAGAGGUGGCCGUGGUGGAGACAGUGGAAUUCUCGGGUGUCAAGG | 0.453
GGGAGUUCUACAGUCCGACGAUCUCCUGUGCUACACAUCGUAUGUACCGAAUCGGGGAAAAAGGGAAAAAGGGAAAAAGGGGAAAGUAUUAUGUUACGCCGUUCGGAUCUGCAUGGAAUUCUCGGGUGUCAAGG | 0.145
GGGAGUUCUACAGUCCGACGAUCAGUCCUGUGCUACACAUCGUAUGUACCGAAUCGGGUUUUUGGGUUUUUGGGUUUGGGAAAGUAUUAUGUUACGCCGUUCGGAUCUGCACUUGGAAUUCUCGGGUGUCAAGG | 0.285
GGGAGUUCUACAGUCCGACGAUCAGUCCUGUGCUACACAUCGUAUGUACCGAAUCGGGAAAAAGGGGAAAAAGGAAAAAGGAAAGUAUUAUGUUACGCCGUUCGGAUCUGCACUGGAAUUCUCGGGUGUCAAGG | -0.0661
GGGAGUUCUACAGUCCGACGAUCUGGGAGACGAUCGCGAUGAACACGGUGCUGUCGCGGGCGAACUCACUGUUCGCCUUCUCGCUGAGCGUGAUGGCGGCGCUCACCUUCGGCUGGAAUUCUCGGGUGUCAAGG | -0.612
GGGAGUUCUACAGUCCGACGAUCCUGUGCUACACAUCGUAUGUACCGAAUCGGGGCCCCCCCGGCCCCCCCGGGCCCCCCCGGGGAAAGUAUUAUGUUACGCCGUUCGGAUCUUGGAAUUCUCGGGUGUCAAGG | -0.667
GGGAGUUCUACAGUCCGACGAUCUGUGCUACACAUCGUAUGUACCGAAUCGGGGAAAAAAAGGGGAAAAAGGGGUUUUUUUGGGGAAAGUAUUAUGUUACGCCGUUCGGAUCUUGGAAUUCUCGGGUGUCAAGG | 1.3
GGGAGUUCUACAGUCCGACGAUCUGUCAGUAUCAUACAUAACAGAGGAAUGCCUGAAGAAGCUGGACACAAAGCAGCAGACCAACACCCUGCUCAACCUGGUGUGGAGGGACUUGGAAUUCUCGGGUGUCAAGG | 0.0916
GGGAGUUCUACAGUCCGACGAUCUGGGAGGGGGAUUUUGUUUAUUUUUUUAGCUCAUUUCCAGGGGUGGGAAUUUUUUUUUAAUAUGUGUCAUGAAUAAAGUUGUUUUUGAAAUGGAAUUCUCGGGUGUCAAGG | 1.99
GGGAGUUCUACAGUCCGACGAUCAGUCCUGUGCUACACAUCGUAUGUACCGAAUCGGAAAAAGGAAAAAGGGGAAAAAGGGAAAGUAUUAUGUUACGCCGUUCGGAUCUGCACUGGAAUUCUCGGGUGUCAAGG | 0.0412
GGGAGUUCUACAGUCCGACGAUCACCAUGCAGGUGGGCAUCUUUGGGAAGUGGGGCAAGGGGGGGAUAGAGAGGGGGGUAACACUUUGGGAACAGGUGGUCCCAGGUCGUUUCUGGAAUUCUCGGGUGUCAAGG | 1.02
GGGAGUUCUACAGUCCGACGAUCAGUCCUGUGCUACACAUCGUAUGUACCGAAUCGGGUUUUUUUGGGUUUGGGUUUGGGAAAGUAUUAUGUUACGCCGUUCGGAUCUGCACUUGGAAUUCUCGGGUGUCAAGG | 0.266

Block 5
Target: RNA binding protein fox-1 homolog 2, RRM domain, GST-SBP tag (RBFOX2, Homo sapiens, UniProt O43251-10, residues 100-194)
Technique: RNA Bind-n-Seq
Form: RNA
Sample: in vitro
Concentration: 365 nM
Setting: natural RNA segment, single round, ends assumed
Reference: no-protein control
Reading: higher = stronger binding
Residues (chain): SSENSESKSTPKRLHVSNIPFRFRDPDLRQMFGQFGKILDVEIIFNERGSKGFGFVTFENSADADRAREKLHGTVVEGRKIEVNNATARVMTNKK
Sequence | RBNS enrichment (R)
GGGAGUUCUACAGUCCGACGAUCUAUCUGUCUUUGUUCACUUAUGAAGCCGGUAACUGCAGCAGUAUGUUGGUGAUGUCAUGAUGCACAGAAGUCCCAUGUGGAGUGUUUUUCCCACACUGACAACUUGGCUUUGGAAUUCUCGGGUGCCAA | 0.508
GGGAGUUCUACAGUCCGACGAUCUUGAAUAAUGGCCCAUUCAUGCCAACCUUGCCAACACGGAGAGGGCAGAGAUGCACUAGAAGACCUUCAUCCUCCCCUUCCUCUGCCCCAAGUCACUACAGUUGGUUCUAUGGAAUUCUCGGGUGCCAA | 0.661
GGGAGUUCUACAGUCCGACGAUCUGGAGACCUCCUCUGGCCAGGGGGCCACUGGUGUCCUCACUGUGUUGGGAUUCUGUUAUCCCUGAUACCCCAGGAGCCUAUUGACCUGACUGAGAAUAGUGACAUGUCUGUGGAAUUCUCGGGUGCCAA | 0.485
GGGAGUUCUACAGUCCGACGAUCCAGAUUUCCCUUUGAAGAAACACUUCUGACAUGGGUAAUUUCUCAAUCAGGGGUCACUUUUAUGAACAGCAUGCAGAAAAAUAGAUCUUCGGGAAUGUUUAAGAUCGAUCUGGAAUUCUCGGGUGCCAA | 39.9
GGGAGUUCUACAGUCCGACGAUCACCGAAUGAUCAGCUGCAUAGCAAAGGACUGUGCCGCUGGCAUAUUGAUCUCAGAUAAAAACUUGUGGACUUGGCUGACACUCUCCCUUGCCCUGAAAUCUCAAUGUCUAUGGAAUUCUCGGGUGCCAA | 0.357
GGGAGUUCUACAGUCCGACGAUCUAAUUCUCGAAGUGUGGAACAAAGUGACCGAGACAGCAUCCUCAGUCAUCUUUGUCUCCUUCCCUGGGAUGCAGAUACCGAAGUUGCUUUUCCAACUUUCGCCUCCGCUAUGGAAUUCUCGGGUGCCAA | 0.203
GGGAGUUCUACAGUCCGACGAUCGGCAGCAGGACCCCAGGCUACAUAUGGAAGGUAGAGAUGUGGGGGUCCUGUAUCCUGGAGUAUUAUGUCUCCCCACCUUCUGCAGUUUUCUCUGAACAUGUAUGUUGCCCUGGAAUUCUCGGGUGCCAA | 0.892
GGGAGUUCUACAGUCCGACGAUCUCUACAGCAGAACUUUGAUGAAGAUGAAGGGAUUUUUUUGUACCUCACACUCACACCAGUGCAUUACACUAACCUUGUUCACUGGAUUGUCUGGGGUGACUUGGGCUCAUUGGAAUUCUCGGGUGCCAA | 0.398
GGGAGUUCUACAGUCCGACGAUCCUUGUGGAGGAGUGGGUGGGGAGGACCACGGUUUGAGGAUCGCUCCUUGCAGAGCUCAUGGUGACCAUUGGUUAAAGCCCAGAAGUUCUGUGUAAGCAUUGAACACUGUCUGGAAUUCUCGGGUGCCAA | 2.19
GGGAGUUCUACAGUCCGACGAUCCAAAAUAUAGUUUUAUCAUGUUAGGUGUAAUUAUGAUUUGAUUAAAUAUAUAAUGCAUUUGCAGUUGUACAUGGGCUAGUUAUAUCAUUUUAGGUGUAAUUAUGACCUGGUGGAAUUCUCGGGUGCCAA | 0.433
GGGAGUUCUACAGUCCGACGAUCGUGAUGGUGGGGAGAUGAUGGGCUAAACAGGCAACUUUUCAAAAACACAGCUAUCAUAGAAAAGAAACUUGCCUCAUGUAAACUGGAUUGAGAAAUUCUCAGUGAUUCUGUGGAAUUCUCGGGUGCCAA | 0.474
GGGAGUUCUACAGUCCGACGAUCCCUGUUAAAUGUCAACCUAGACCUGGACCUGGGUGGGAGGAAACUGUAGCCUGAGUGUCCACAGGGACACACGUGAGCCACAGGGCUAGAAGCACAGGCCCGUCACCCCAUGGAAUUCUCGGGUGCCAA | 0.3

Some of these lines once more (block 3):
Sequence | 7-mer Z-score
GGCUCAG | 0.204
GUGAUUU | -0.224
GCUACGA | -0.11
GAAUUUG | -0.315
AUGUGCU | -0.0971
UGUGAUU | -0.284
